# Results gathered from unrelated publications.
# Compare with care: the assays were run in different laboratories. Values joined by “and” are separate records of one study, mostly repeats; a detail may differ. ± gives the spread as reported.
# Melanocortin receptor 4: Melanocortin receptor 4 (Mus musculus, UniProt P56450)
# Chain of UniProt P56450 (whole entry, looked up): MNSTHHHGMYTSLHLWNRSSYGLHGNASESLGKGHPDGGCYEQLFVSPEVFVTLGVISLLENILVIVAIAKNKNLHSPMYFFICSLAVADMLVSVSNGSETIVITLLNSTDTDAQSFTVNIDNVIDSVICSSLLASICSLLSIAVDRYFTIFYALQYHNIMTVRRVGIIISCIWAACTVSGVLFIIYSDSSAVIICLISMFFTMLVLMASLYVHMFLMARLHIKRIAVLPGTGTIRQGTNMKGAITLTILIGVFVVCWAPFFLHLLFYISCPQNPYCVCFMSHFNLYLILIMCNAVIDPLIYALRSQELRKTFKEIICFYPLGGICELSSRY
# CHRM1: Muscarinic acetylcholine receptor M1 (CHRM1, Homo sapiens, UniProt P11229)
# Chain of UniProt P11229 (whole entry, looked up): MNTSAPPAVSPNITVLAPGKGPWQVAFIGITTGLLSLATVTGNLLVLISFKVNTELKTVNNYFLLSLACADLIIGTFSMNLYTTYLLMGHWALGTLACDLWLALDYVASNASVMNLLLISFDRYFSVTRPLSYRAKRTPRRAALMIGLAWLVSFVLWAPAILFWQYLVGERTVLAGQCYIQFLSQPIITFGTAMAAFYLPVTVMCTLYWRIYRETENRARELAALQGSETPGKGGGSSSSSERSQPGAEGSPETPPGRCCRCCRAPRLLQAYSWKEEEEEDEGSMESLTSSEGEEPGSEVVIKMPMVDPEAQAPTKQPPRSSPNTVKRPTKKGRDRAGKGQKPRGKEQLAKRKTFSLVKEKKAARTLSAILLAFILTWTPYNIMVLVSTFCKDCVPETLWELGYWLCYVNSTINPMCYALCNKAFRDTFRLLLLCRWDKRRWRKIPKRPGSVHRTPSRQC
# DNA topoisomerase IB: DNA topoisomerase IB (Leishmania donovani, UniProt A0A3Q8IHS4+Q8WQM6)
# ATP2A2: ATP2A2 (Sus scrofa, UniProt P11607)
# Chain of UniProt P11607 (whole entry, looked up): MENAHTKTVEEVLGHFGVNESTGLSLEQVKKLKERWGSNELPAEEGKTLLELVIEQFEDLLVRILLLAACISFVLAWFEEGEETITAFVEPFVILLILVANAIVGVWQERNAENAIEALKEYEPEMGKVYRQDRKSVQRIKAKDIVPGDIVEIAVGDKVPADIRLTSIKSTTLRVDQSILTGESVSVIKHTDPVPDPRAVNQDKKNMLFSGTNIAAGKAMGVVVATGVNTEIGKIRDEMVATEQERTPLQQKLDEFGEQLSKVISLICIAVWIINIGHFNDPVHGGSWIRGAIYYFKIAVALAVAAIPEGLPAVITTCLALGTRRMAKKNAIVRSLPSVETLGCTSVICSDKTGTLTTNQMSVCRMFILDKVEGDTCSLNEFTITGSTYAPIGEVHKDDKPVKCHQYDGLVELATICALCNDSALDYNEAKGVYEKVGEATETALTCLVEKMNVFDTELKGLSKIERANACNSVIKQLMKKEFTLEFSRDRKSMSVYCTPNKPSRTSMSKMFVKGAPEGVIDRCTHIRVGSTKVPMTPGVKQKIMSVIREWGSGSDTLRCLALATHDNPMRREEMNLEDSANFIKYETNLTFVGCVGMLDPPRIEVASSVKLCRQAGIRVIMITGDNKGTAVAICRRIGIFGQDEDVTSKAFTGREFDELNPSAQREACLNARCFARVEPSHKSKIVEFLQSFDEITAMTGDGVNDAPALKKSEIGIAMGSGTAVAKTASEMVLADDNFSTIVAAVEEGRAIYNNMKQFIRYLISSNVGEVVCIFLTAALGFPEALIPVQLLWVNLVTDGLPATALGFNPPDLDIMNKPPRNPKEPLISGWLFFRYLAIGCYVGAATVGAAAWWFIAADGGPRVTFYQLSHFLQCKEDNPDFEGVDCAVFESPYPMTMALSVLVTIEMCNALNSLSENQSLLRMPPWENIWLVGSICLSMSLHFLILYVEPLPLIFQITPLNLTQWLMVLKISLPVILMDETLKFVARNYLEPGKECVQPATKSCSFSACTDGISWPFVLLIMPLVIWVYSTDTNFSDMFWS
# P2RY4: P2Y purinoceptor 4 (P2RY4, Homo sapiens, UniProt P51582)
# Chain of UniProt P51582 (whole entry, looked up): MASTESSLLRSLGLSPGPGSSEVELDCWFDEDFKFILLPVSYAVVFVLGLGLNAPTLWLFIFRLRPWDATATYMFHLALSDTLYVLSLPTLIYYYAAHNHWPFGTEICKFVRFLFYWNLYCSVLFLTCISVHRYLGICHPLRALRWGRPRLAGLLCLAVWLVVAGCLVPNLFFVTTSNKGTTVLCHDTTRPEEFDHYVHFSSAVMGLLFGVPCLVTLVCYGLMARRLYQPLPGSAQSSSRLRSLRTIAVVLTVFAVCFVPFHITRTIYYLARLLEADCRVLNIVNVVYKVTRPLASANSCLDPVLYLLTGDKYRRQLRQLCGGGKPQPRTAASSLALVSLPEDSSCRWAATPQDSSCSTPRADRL
# GPBAR1: G-protein coupled bile acid receptor 1 (GPBAR1, Homo sapiens, UniProt Q8TDU6)
# Chain of UniProt Q8TDU6 (whole entry, looked up): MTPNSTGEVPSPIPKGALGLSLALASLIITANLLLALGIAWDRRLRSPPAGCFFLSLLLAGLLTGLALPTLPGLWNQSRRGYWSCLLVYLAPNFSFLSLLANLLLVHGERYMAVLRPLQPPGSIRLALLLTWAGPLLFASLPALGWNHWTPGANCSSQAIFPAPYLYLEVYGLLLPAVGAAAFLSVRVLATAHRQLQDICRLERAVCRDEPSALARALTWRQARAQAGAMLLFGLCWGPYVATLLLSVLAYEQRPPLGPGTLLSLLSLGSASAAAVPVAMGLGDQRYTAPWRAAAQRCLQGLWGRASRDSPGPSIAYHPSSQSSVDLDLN
# Chain of UniProt P37231 (whole entry, looked up): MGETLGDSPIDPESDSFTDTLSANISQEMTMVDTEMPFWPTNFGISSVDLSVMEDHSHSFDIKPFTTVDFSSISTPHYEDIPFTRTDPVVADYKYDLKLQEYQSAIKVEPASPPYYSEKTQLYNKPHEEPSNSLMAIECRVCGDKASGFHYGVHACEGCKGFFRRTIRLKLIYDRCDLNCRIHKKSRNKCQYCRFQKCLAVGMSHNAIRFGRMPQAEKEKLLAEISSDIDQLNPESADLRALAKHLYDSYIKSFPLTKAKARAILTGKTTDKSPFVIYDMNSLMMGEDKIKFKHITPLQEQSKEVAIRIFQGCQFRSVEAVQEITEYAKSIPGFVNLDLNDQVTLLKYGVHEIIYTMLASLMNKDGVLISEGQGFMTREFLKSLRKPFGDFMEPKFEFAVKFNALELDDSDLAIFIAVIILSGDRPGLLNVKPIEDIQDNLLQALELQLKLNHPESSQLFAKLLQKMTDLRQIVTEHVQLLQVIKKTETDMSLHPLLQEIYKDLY
# Chain of UniProt O15297 (whole entry, looked up): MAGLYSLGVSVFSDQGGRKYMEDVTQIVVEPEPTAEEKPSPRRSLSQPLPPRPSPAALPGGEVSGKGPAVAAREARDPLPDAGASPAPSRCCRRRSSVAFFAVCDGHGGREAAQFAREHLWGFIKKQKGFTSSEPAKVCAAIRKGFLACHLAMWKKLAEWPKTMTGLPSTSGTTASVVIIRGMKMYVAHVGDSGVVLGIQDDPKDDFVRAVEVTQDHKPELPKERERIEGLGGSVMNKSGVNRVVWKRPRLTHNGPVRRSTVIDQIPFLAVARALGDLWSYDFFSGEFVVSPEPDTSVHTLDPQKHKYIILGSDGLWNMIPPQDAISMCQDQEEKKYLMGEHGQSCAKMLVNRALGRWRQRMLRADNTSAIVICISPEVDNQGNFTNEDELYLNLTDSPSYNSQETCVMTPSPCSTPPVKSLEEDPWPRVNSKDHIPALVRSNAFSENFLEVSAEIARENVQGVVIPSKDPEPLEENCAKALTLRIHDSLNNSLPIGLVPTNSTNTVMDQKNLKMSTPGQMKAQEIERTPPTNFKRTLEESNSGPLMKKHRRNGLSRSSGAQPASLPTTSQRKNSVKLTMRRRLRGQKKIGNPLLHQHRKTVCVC
# Chain of UniProt P41231 (whole entry, looked up): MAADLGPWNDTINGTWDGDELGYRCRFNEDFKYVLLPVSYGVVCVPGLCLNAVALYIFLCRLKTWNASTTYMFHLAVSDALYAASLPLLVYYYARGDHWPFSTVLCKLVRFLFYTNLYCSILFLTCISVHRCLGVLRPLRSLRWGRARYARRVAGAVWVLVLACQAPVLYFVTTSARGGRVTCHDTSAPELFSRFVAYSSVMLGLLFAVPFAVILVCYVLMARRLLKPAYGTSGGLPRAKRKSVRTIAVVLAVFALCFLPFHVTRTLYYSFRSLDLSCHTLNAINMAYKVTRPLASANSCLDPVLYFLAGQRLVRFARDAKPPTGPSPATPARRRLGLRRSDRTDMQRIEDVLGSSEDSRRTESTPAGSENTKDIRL
# Chain of UniProt Q92731 (whole entry, looked up): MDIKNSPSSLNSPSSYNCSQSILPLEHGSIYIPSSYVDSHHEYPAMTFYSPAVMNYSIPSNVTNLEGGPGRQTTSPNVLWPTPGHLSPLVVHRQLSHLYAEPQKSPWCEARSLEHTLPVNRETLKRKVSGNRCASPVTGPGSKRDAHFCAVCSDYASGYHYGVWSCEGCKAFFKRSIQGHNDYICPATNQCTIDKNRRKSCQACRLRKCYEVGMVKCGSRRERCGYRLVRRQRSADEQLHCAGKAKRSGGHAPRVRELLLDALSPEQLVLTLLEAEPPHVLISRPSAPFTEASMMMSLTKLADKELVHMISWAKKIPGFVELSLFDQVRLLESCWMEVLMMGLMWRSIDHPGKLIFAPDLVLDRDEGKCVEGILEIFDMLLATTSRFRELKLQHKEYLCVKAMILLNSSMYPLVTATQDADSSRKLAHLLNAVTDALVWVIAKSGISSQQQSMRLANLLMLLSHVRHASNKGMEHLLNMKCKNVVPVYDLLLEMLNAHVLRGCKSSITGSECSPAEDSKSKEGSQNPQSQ
# Chain of UniProt P25089 (whole entry, looked up): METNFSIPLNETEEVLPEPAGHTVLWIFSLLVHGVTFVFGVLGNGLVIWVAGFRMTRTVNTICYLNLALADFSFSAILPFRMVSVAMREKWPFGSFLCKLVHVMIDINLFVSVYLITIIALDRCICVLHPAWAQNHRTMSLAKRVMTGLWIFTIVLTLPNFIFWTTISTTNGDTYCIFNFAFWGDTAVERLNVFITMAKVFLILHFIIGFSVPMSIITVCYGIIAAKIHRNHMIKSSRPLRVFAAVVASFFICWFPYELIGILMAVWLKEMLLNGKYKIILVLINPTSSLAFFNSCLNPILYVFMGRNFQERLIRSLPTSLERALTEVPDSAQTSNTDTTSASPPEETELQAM
SMILES,target,assay,test system,setting,EC50
CCCC[C@H](NC(=O)[C@H](CO)NC(=O)[C@H](Cc1ccc(O)cc1)NC(=O)[C@H](CO)NC(C)=O)C(=O)N[C@@H](CCC(=O)O)C(=O)N[C@@H](Cc1c[nH]cn1)C(=O)N[C@H](Cc1ccccc1)C(=O)N[C@@H](CCCNC(=N)N)C(=O)N[C@@H](Cc1c[nH]c2ccccc12)C(=O)NCC(=O)N[C@@H](C)C(=O)N1CCC[C@H]1C(=O)N[C@H](C(N)=O)C(C)C,Melanocortin receptor 4,,,,0.00023 ± 3e-05 µM
Cn1cc(-c2ccc(CN3C(=O)C4(CCN(C5CCCC5)C4)c4ccccc43)c(F)c2)c(C(F)(F)F)n1 (stereo not shown),CHRM1,"acetylcholine response, positive allosteric modulator",cell-based,inactive up to 30 µM,> 30 µM
CC1=NN(CC(=O)Nc2ccc(Br)cc2)C(=O)CC1C (racemic),"N-formyl peptide receptor 3 (Homo sapiens, UniProt P25089)","calcium signal, agonist",,,11.8 µM
CCCC[C@H](NC(=O)[C@H](CO)NC(=O)[C@H](Cc1ccc(O)cc1)NC(=O)[C@H](CO)NC(C)=O)C(=O)N[C@@H](CCC(=O)O)C(=O)N[C@@H](C)C(=O)N[C@H](Cc1ccccc1)C(=O)N[C@@H](CCCNC(=N)N)C(=O)N[C@@H](Cc1c[nH]c2ccccc12)C(=O)NCC(=O)N[C@@H](CCCCN)C(=O)N1CCC[C@H]1C(=O)N[C@H](C(N)=O)C(C)C,Melanocortin receptor 4,,,,0.00032 ± 4e-05 µM
CC1C=CCCOC(=O)c2c(O)cc(O)cc2CC(=NOCC(=O)N2CCCCC2)C=CC1 (stereo not shown),"Heat shock protein HSP 90-alpha (HSP90AA1, Homo sapiens, UniProt P07900)","binding, fluorescence polarisation competition",,"20 nM HSP90, E/Z oxime mixture, with: fluorescein-labelled 17-AAG analogue",0.021 µM
CC(=O)N[C@@H](CO)C(=O)N[C@@H](Cc1ccc(O)cc1)C(=O)N[C@@H](CO)C(=O)N[C@@H](C)C(=O)N[C@@H](CCC(=O)O)C(=O)N[C@@H](Cc1c[nH]cn1)C(=O)N[C@H](Cc1ccccc1)C(=O)N[C@@H](CCCNC(=N)N)C(=O)N[C@@H](Cc1c[nH]c2ccccc12)C(=O)NCC(=O)N[C@@H](CCCCN)C(=O)N1CCC[C@H]1C(=O)N[C@H](C(N)=O)C(C)C,Melanocortin receptor 4,,,,0.00039 ± 0.0001 µM
CCCCCCCCCCC#CCCCC(OC)C(=O)O (racemic),DNA topoisomerase IB,"DNA relaxation, inhibitor",,"30 min, 37 °C",16.6 ± 1.1 µM
C=CCOc1ccc(F)cc1[C@H]1C[C@@H]1CN.Cl,"5-hydroxytryptamine receptor 2B (HTR2B, Homo sapiens, UniProt P41595)",,,,inactive
CCCN(Cc1ccccc1O)C(=O)c1cc(C)c(C)s1,ATP2A2,"Ca2+-ATPase activity, activator",porcine cardiac SR vesicles,maximal Ca2+ activity,6.6 ± 1.8 µM
Cc1cc(C2=C(c3ccccc3)C3CC(S(=O)(=O)Oc4ccc(O)cc4)C2[S+]3[O-])ccc1O (stereo not shown),"Estrogen receptor beta (ESR2, Homo sapiens, UniProt Q92731)",cell-based,,,> 10 µM
Cc1ncc(Cl)cc1NCc1ccc(C(=O)N[C@@H](CC2CCCC2)C(=O)NC2CC2)s1,"Protein phosphatase 1D (PPM1D, Homo sapiens, UniProt O15297)","γH2AX level increase, inhibitor, ELISA",MCF7,"75 min after irradiation, pretreated 1 h, with: 10 Gy ionizing radiation",0.2 ± 0.12 µM
CSCC[C@H](NC(=O)[C@H](CO)NC(=O)[C@H](C)NC(=O)[C@H](CO)NC(C)=O)C(=O)N[C@@H](CCC(=O)O)C(=O)N[C@@H](Cc1c[nH]cn1)C(=O)N[C@@H](Cc1ccccc1)C(=O)N[C@@H](CCCNC(=N)N)C(=O)N[C@@H](Cc1c[nH]c2ccccc12)C(=O)NCC(=O)N[C@@H](CCCCN)C(=O)N1CCC[C@H]1C(=O)N[C@H](C(N)=O)C(C)C,Melanocortin receptor 4,,,,0.025 ± 0.0079 µM
CCC(O)/C=C/C=O (stereo not shown),"Transient receptor potential cation channel subfamily A member 1 (Trpa1, Mus musculus, UniProt Q8BLA8)","calcium signal, agonist, fluorescence",,,39.9 µM
CO/N=c1/ccn([C@@H]2O[C@H](COP(=O)(O)OP(=O)(O)OP(=O)(O)O[C@H]3O[C@H](CO)[C@@H](O)[C@H](O)[C@H]3O)[C@@H](O)[C@H]2O)c(=O)[nH]1,P2RY4,"PLC activation, agonist","1321N1, transfected",,> 10 µM
BP(=O)(OC[C@H]1O[C@@H](n2ccc(=O)[nH]c2=O)[C@H](O)[C@@H]1O)OP(=O)(O)OP(=O)(O)OC[C@H]1O[C@@H](n2ccc(=O)[nH]c2=O)[C@H](O)[C@@H]1O (stereo partly shown),P2RY4,"intracellular calcium rise, agonist",1321N1 expressing human P2Y4,37 °C,> 100 µM
C[C@H](CCC(=O)N[C@@H](Cc1ccccc1)C(=O)O)[C@H]1CC[C@H]2[C@@H]3[C@H](O)C[C@@H]4C[C@H](O)CC[C@]4(C)[C@H]3CC[C@]12C,GPBAR1,"G protein activation, agonist, BRET",,,59.2 µM
BP(=O)(OC[C@H]1O[C@@H](n2cnc3c(N)ncnc32)[C@H](O)[C@@H]1O)OP(=O)(O)OP(=O)(O)OP(=O)(O)OC[C@H]1O[C@@H](n2cnc3c(N)ncnc32)[C@H](O)[C@@H]1O (stereo partly shown),P2RY4,"intracellular calcium rise, agonist",1321N1 expressing human P2Y4,37 °C,> 100 µM
CSCC[C@H](NC(=O)[C@H](CO)NC(=O)[C@H](Cc1ccc(O)cc1)NC(=O)[C@H](CO)NC(C)=O)C(=O)N[C@@H](CCC(=O)O)C(=O)N[C@@H](Cc1c[nH]cn1)C(=O)N[C@@H](Cc1ccccc1)C(=O)N[C@@H](CCCNC(=N)N)C(=O)N[C@@H](Cc1c[nH]c2ccccc12)C(=O)NCC(=O)N[C@@H](CCCCN)C(=O)N1CCC[C@H]1C(=O)N[C@@H](C)C(N)=O,Melanocortin receptor 4,,,,0.032 ± 0.014 µM
C/C=C1/[C@H](O[C@@H]2O[C@H](CO)[C@@H](O)[C@H](O)[C@H]2O)OC=C(C(=O)OC)[C@H]1CC(=O)OCCc1ccc(O)c(O)c1,human 20S proteasome,"chymotrypsin-like activity, activator",,without PA28,> 15 µM
COc1ccccc1CN(C(=O)c1cc(C)c(C)s1)C(C)C,ATP2A2,"Ca2+-ATPase activity, activator",porcine cardiac SR vesicles,maximal Ca2+ activity,4.7 ± 1.1 µM
Cc1c(-c2ccc(CN3C(=O)C4(CCN(C5CCCC5)C4)c4ccccc43)c(F)c2)cnn1C (stereo not shown),CHRM1,"acetylcholine response, positive allosteric modulator",cell-based,inactive up to 30 µM,> 30 µM
CCCC[C@H](NC(=O)[C@H](CO)NC(=O)[C@H](Cc1ccc(O)cc1)NC(=O)[C@H](CO)NC(C)=O)C(=O)N[C@@H](CCC(=O)O)C(=O)N[C@@H](Cc1c[nH]cn1)C(=O)N[C@H](Cc1ccccc1)C(=O)N[C@@H](CCCNC(=N)N)C(=O)N[C@@H](C)C(=O)NCC(=O)N[C@@H](CCCCN)C(=O)N1CCC[C@H]1C(=O)N[C@H](C(N)=O)C(C)C,Melanocortin receptor 4,,,,0.34 ± 0.14 µM
O=c1ccn([C@@H]2O[C@H](COP(=O)(O)OP(=O)(O)OP(=O)(O)O[C@H]3O[C@H](CO)[C@@H](O)[C@H](O)[C@H]3O)[C@@H](O)[C@H]2O)c(=O)[nH]1,"P2Y purinoceptor 2 (P2RY2, Homo sapiens, UniProt P41231)","PLC activation, agonist","1321N1, transfected",,> 10 µM
Cn1cc(-c2ccc(CN3C(=O)CCCc4ccccc43)c(F)c2)cn1,CHRM1,"calcium response, positive allosteric modulator",HM1 cells,with: acetylcholine,> 30 µM
CCCN(Cc1ccccc1OC)C(=O)c1ccc(Cl)s1,ATP2A2,"Ca2+-ATPase activity, activator",porcine cardiac SR vesicles,maximal Ca2+ activity,5.1 ± 0.7 µM
CCCCCCCCCC/C=C\CCCC(OC)C(=O)O (racemic),DNA topoisomerase IB,"DNA relaxation, inhibitor",,"30 min, 37 °C",41.3 ± 5.6 µM
CCCN(Cc1ccccc1OC)C(=O)c1cccs1,ATP2A2,"Ca2+-ATPase activity, activator",porcine cardiac SR vesicles,maximal Ca2+ activity,6.1 ± 1.8 µM
CCCCC/C(=C\C/C=C\CCCCCCCC(=O)O)[N+](=O)[O-],"Peroxisome proliferator-activated receptor gamma (PPARG, Homo sapiens, UniProt P37231)","reporter gene, agonist",MCF7 PPRE-luciferase,"24 h, without doxycycline",0.41 to 0.62 µM and 0.62 µM
CCCN(Cc1ccc(OC)cc1)C(=O)c1cc(C)c(C)s1,ATP2A2,"Ca2+-ATPase activity, activator",porcine cardiac SR vesicles,maximal Ca2+ activity,7.9 ± 2.3 µM
Cc1c(C)c2c(c(C)c1O)CCC(C)(C(=O)O)O2 (stereo not shown),cytochrome P450 oxidoreductase,"NADPH-dependent NO consumption, NO electrode",,"37 °C, with: NADPH 100 µM, DETA/NO 300 µM",270 µM
CCCC[C@H](NC(=O)[C@H](CO)NC(=O)[C@H](Cc1ccc(O)cc1)NC(=O)[C@H](CO)NC(C)=O)C(=O)N[C@@H](CCC(=O)O)C(=O)N[C@@H](Cc1c[nH]cn1)C(=O)N[C@@H](C)C(=O)N[C@@H](CCCNC(=N)N)C(=O)N[C@@H](Cc1c[nH]c2ccccc12)C(=O)NCC(=O)N[C@@H](CCCCN)C(=O)N1CCC[C@H]1C(=O)N[C@H](C(N)=O)C(C)C,Melanocortin receptor 4,,,,0.38 ± 0.064 µM
O=C(Cn1c(=O)ccn([C@@H]2O[C@H](COP(=O)(O)OP(=O)(O)OP(=O)(O)O[C@H]3O[C@H](CO)[C@@H](O)[C@H](O)[C@H]3O)[C@@H](O)[C@H]2O)c1=O)c1ccccc1,P2RY4,"PLC activation, agonist","1321N1, transfected",,> 10 µM
CSCC[C@H](NC(=O)[C@H](CO)NC(=O)[C@H](Cc1ccc(O)cc1)NC(=O)[C@H](CO)NC(C)=O)C(=O)N[C@@H](CCC(=O)O)C(=O)N[C@@H](C)C(=O)N[C@@H](Cc1ccccc1)C(=O)N[C@@H](CCCNC(=N)N)C(=O)N[C@@H](Cc1c[nH]c2ccccc12)C(=O)NCC(=O)N[C@@H](CCCCN)C(=O)N1CCC[C@H]1C(=O)N[C@H](C(N)=O)C(C)C,Melanocortin receptor 4,,,,2.75 ± 0.73 µM
CC(C)C[C@H](NC(=O)CC[C@@H](C)[C@H]1CC[C@H]2[C@@H]3[C@H](O)C[C@@H]4C[C@H](O)CC[C@]4(C)[C@H]3C[C@H](O)[C@]12C)C(=O)O,GPBAR1,"G protein activation, agonist, BRET",,,1150 µM

# Excerpt of the above:
SMILES,target,assay,test system,setting,EC50
BP(=O)(OC[C@H]1O[C@@H](n2cnc3c(N)ncnc32)[C@H](O)[C@@H]1O)OP(=O)(O)OP(=O)(O)OP(=O)(O)OC[C@H]1O[C@@H](n2cnc3c(N)ncnc32)[C@H](O)[C@@H]1O (stereo partly shown),P2RY4,"intracellular calcium rise, agonist",1321N1 expressing human P2Y4,37 °C,> 100 µM
CSCC[C@H](NC(=O)[C@H](CO)NC(=O)[C@H](Cc1ccc(O)cc1)NC(=O)[C@H](CO)NC(C)=O)C(=O)N[C@@H](CCC(=O)O)C(=O)N[C@@H](Cc1c[nH]cn1)C(=O)N[C@@H](Cc1ccccc1)C(=O)N[C@@H](CCCNC(=N)N)C(=O)N[C@@H](Cc1c[nH]c2ccccc12)C(=O)NCC(=O)N[C@@H](CCCCN)C(=O)N1CCC[C@H]1C(=O)N[C@@H](C)C(N)=O,Melanocortin receptor 4,,,,0.032 ± 0.014 µM
C/C=C1/[C@H](O[C@@H]2O[C@H](CO)[C@@H](O)[C@H](O)[C@H]2O)OC=C(C(=O)OC)[C@H]1CC(=O)OCCc1ccc(O)c(O)c1,human 20S proteasome,"chymotrypsin-like activity, activator",,without PA28,> 15 µM
COc1ccccc1CN(C(=O)c1cc(C)c(C)s1)C(C)C,ATP2A2,"Ca2+-ATPase activity, activator",porcine cardiac SR vesicles,maximal Ca2+ activity,4.7 ± 1.1 µM
Cc1c(-c2ccc(CN3C(=O)C4(CCN(C5CCCC5)C4)c4ccccc43)c(F)c2)cnn1C (stereo not shown),CHRM1,"acetylcholine response, positive allosteric modulator",cell-based,inactive up to 30 µM,> 30 µM
